Measurements pooled from the literature.
Protocols differ between the studies behind these lines. Numbers after ± are the reported error.

| SMILES | assay | system | conditions | how to read | measurement | value |
| --- | --- | --- | --- | --- | --- | --- |
| CCCCCCCCN(CCC(=O)Nc1ccccc1)C(=O)c1ccccn1 | chemical stability | mouse, serum | 500 µM |  | half-life | 29 min |
| N=C(N)NCCC[C@@H]1NC(=O)[C@H](Cc2c[nH]c3ccccc23)NC(=O)[C@@H](CC2CCCCC2)NC(=O)[C@@H]2CCCN2C(=O)[C@@H](NC(=O)CCc2ccccc2)CCCNC1=O |  | C57BL/6J mouse, plasma brain | subcutaneous, 1 mg/kg single dose |  | MRT(0-last) | 43.2 min |
| CN1CCC[C@]1(C)/C=C/S(=O)(=O)NC(=O)Nc1c2c(cc3c1CCC3)CCC2 |  | human, urine | oral, dose not given, time not given, single dose |  | cumulative urinary recovery | 50 to 85% |
| CC(=O)N[C@@H](CC(N)=O)C(=O)NCC(=O)N[C@@H](CCCNC(=N)N)C(=O)N[C@@H](C)C(N)=O | 1H NMR | sodium phosphate buffer 50 mM | pH 7.4, 46 °C |  | half-life of Asn form | 780 min |
| CC(C)[C@H](NC(=O)[C@@H]1CCCN1C(=O)[C@H](CCCNC(=N)N)NC(=O)[C@H](CS)NC(=O)[C@H](Cc1c[nH]c2ccccc12)NC(=O)[C@H](CCCNC(=N)N)NC(=O)[C@@H](Cc1ccccc1)NC(=O)[C@H](Cc1c[nH]cn1)NC(=O)[C@H](CCC(=O)O)NC(=O)[C@H](CS)NC(=O)[C@H](CS)NC(=O)CNC(=O)[C@@H]1CC(=O)N[C@@H](CCCNC(=N)N)C(=O)NCC(=O)N[C@@H](CC(=O)O)C(=O)N[C@H](Cc2ccc(O)cc2)C(=O)N1)C(N)=O [technetium-99m labelled] |  | C57 mouse, female, B16/F1 melanoma | intravenous, 0.037 MBq, 24 h | relative to: tumour over lung | tumour to tissue ratio | 16.3 |
| Cn1c(=O)oc2ccc(-c3ccc(CC(C#N)NC(=O)C4CNCCCO4)c(F)c3)cc21 (stereo not drawn) | refers to: alanine aminotransferase increased | human | 15 mg single dose, fasted |  | subjects with TRAE | 0% |
| O=C(O)c1cccc(S(=O)(=O)Nc2ccccc2)c1 |  | human, moderate liver dysfunction, plasma | intravenous, 400 mg/m^2 belinostat, cycle 1 day -7, geometric mean | relative to: metabolite over belinostat | Cmax metabolic ratio | 0.0738 |
| CCCCCCCCCCCCCCCC(=O)N[C@@H](CCCCN)C(=O)N[C@H](C(=O)N[C@H](C(=O)N[C@@H](CCCCN)C(=O)N[C@@H](CO)C(=O)O)[C@@H](C)O)[C@@H](C)O |  | hairless mouse skin | 50 µg/cm^2, 24 h |  | amount retained in dermis | 0.3 ± 0.1 µg/cm² |
| CC1=C(/C=C/C(=O)N2CCN(C(N)=O)CC2)C(C)(C)CCC1 |  | female mice, retina | oral, 40 mg/kg |  | Cmax | 9.08 nmol/g |

Excerpt of the above:
| SMILES | assay | system | conditions | how to read | measurement | value |
| --- | --- | --- | --- | --- | --- | --- |
| CCCCCCCCCCCCCCCC(=O)N[C@@H](CCCCN)C(=O)N[C@H](C(=O)N[C@H](C(=O)N[C@@H](CCCCN)C(=O)N[C@@H](CO)C(=O)O)[C@@H](C)O)[C@@H](C)O |  | hairless mouse skin | 50 µg/cm^2, 24 h |  | amount retained in dermis | 0.3 ± 0.1 µg/cm² |
